# Assay results gathered from unrelated publications.
# Every numbered part comes from another study and shows a few of its results, in no order.

# Sample 1
# Target: RNA binding protein fox-1 homolog 2, RRM domain, GST-SBP tag (RBFOX2, Homo sapiens, UniProt O43251-10, residues 100-194)
# Technique: RNA Bind-n-Seq
# Form: RNA
# Medium: in vitro
# Concentration: 365 nM
# Setting: natural RNA segment, single round, ends assumed
# Baseline: no-protein control
# Direction: higher = stronger binding
# Constant ends, left off below: GGGAGUUCUACAGUCCGACGAUC … UGGAAUUCUCGGGUGCCAA
# Residues (chain): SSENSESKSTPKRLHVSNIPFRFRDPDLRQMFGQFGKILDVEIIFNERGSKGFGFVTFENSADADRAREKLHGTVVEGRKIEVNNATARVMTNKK
Sequence,RBNS enrichment (R)
UCCAUGGGCUGCUAGACUCUUGCGGGUAGAGUCUCCCCUGGACUUAGCAUUGUGAGAUGGACUCAGCUCAGGGCGCCCCUAAGGCUCGGAGGCGGCCUUCUGGGUCCCCA,0.675
GGUUCUUGUUUGAAAUUUUCAGUUCUCUUUAUCUUCCCAGUACCUCUUGGUCCUCAUAAUGGGCAAAGGAUACAACGAAGGCAGGUUGUAUAGGGGUUAUAGUGGGGAAG,0.603
CACUUGGCCCUUUUCCAAGCACAUCUGGGCAGAUAUAGACACAGGAAGAUAGGGUCCAACAGCGAGAGCCAGGCCCCUCCCCACCCCCACCAGCUCUCUCUAUCAUGGAU,0.313
CUUGGCAACUUUACUUGGCUGAAUGAACUCCAAUCGGAAACAAUUGCUUCAAGCCAGUUUUUCCUUUUUACCCUCCCCCAAUCCAUGAAAGCCUAAGUGUAAAUAUAUAU,0.931
AAGAUUCUGAGCUCUCUCUCUGUUUUGUUCUAGCCAUGAAUUUGCCUGAGAAACUUGUAACCUAUGUGCCUCAAUAUAUUCCAUAGAAAGUAGGUCCCCCUGCCUUCUCC,0.335
GCUGCAUUUGUUGUGUUUUUUAGGUUGCAAUUGGUGAAGUUCACACUUUCAUUGUAAUUUUAGCGUGUGGGGUUUUGUCCCUUUUUUGUUGUUGUUAGCUGUGUACAGAA,1.37
CACUGCUUUCUCAAGUAGUUUUGAGUGCUGGGUCCUUAAAACCCAACUAUGCAUUUUUGUCUGAAAGUAGGCACUGAAGCAUUGAAGUAAGGUAAGGAGACAUCCUCUUC,0.231
GAACAACAAUGUAAAACCUGUUCUGUCACAAAUGUUCCUGAAAGCACCACAGCUACUCAAGAAGAUCAAAUUCAGGACAUAAACUUUAUUGAACAUAAUAACCAGUGUUU,0.304
UGGGAAGCGCUGGGGUACAAAGAAAAUGCAAAUGUUCAAUGCAAGAUGUCUGUCUCCUUGCGUGUAGAUCCCAAAAGUGCUCUUCAGGGGUUCUGUGCUAGCUGAUGCAA,0.364
AGCAUAUCUAAGUGCCAUGAAUACAUUUUCCCUACUCUAUAGCAUAGCUCUGUAAAACUUGUCCUGUGAGCGAGGCAGGUGCUAUCUGAGAGAGGGAUCUUGCAGCUGUC,0.443
ACUUUGCCAGCAGCUUCUAGCCUUAAAACCCCAGGAACUUCUGCAAAUAUGAAUGGACCCAUUUCAAGAACAAGUUCUAGUAUCCCUGCUAAUAAUCCUUUAGUUACUCA,0.492
AAACUCAAGUGGAGCUGAACUUUCACAAAGGGAAAGAUAAACCACAGAAGCCUGGCCCCAGAGACCUAAGACCUGUAUUGUGCAUUGUUUCCUAACUGCAUGUGAUAGAC,4.48

# Sample 2
# Target: Interferon regulatory factor 5, full length, phosphomimetic (IRF5, Homo sapiens, UniProt Q13568-2, residues 1-514, K96S/S451D/S453D/S456D/S462D)
# Technique: protein-binding microarray
# Form: double-stranded DNA, one strand shown
# Medium: in vitro
# Concentration: 250 nM
# Setting: 60-bp whole probe
# With: salmon DNA 0.4 mg/ml
# Baseline: random background probes
# Direction: higher = stronger binding
# Constant ends, left off below: GCCTAGCAC … GTCTTGATTCGCTTGACGCTGCTG
Sequence,log fluorescence [z-score]
GACGAACTGAGTTTCGCGACGTGCTAG,1
GACGGTTTCTGGTTTCGGGACGTGCTA,5.09
TTAGGTTTCGGGATTGGGTTAGTGCTA,6.91
GACGATCTCAGTTTCGAGAGGTGCTAG,4.73
GGTCTTCTGGGCTGTTTGATCGTGCTA,-0.313
GACGATTTAAGTTCCGAGACGTGCTAG,0.116
TTAGATAGCAGTCTCGATTAGTGCTAG,0.52
TTAGGACTGCTTTTGCTTTAGTGCTAG,0.52
TCAGTTGTCCAGGCTGGTACTGTGCTA,-0.424
TGTGCTTTCCTGATGGTTCTGTGCTAG,0.418
TCTTGTCTGGAGTCTCTGTTCGTGCTA,0.12
GACGATACCGGGTTTCGAGACGTGCTA,2.26
CTCTGGGGAGATCAGCGCATGTGCTAG,-0.879
ATAGGTTTCGGTCTCGGTTAGTGCTAG,10.1
TTAGATATCTGGTATCGATTAGTGCTA,6.15
GACGATATTGGGTATCGAGACGTGCTA,1.32
TTAGGTTCCGGTTCCGGTTAGTGCTAG,2.62
TTAAGTTTCCTTTCCCTTTAGTGCTAG,2.76
AGATATTTAGAACTTCTCCACGTGCTA,0.442
TTACGTATCCTTCTCCTTTAGTGCTAG,1.04
TTAGGTCTCGGGATCGGTTAGTGCTAG,0.108
GGACCGACCCCTCCATCCCTGTGCTAG,-0.924
GAAGGTATCGACACTGGGGACGTGCTA,1.44
TCAATTTTTAGGATGGGACTGTGCTAG,0.0543
GACGGTTCCCTTGTCCTGACGTGCTAG,-0.112

# Sample 3
# Target: Ras GTPase-activating protein-binding protein 1, C-terminal RGG region (G3BP1, Homo sapiens, UniProt Q13283)
# Chain of UniProt Q13283 (whole entry, looked up): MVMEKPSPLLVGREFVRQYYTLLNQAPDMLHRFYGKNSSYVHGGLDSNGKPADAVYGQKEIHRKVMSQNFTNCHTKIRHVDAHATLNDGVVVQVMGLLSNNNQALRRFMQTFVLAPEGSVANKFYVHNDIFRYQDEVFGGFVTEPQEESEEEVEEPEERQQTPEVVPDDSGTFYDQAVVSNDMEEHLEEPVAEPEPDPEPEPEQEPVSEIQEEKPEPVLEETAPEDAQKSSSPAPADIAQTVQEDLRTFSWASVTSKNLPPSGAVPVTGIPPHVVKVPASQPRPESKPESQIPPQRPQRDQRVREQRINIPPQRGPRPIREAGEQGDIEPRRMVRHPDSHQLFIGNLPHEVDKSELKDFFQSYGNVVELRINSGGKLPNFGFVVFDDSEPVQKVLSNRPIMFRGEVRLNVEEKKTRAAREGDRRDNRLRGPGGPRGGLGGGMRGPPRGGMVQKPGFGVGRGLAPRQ
# Technique: RNA Bind-n-Seq
# Form: RNA
# Medium: in vitro
# Concentration: 1 µM
# Setting: whole 134-nt RNA, ends assumed
# With: 150 mM KCl
# Baseline: input library
# Direction: higher = stronger binding
# Constant ends, left off below: GGGAGUUCUACAGUCCGACGAUC … UGGAAUUCUCGGGUGUCAAGG
Sequence,log2 enrichment
GUCCUGUGCUACACAUCGUAUGUACCGAAUCAAAUUUUUUUAAAUUUUUAAAUUUAAAAAAGUAUUAUGUUACGCCGUUCGGAUCUGCAC,-2.61
CCUCAAGUCCUGUGCUACACAUCGUAUGUACCGAAUCGGGGUGGGUGGUGGGAAAGUAUUAUGUUACGCCGUUCGGAUCUGCACUUCCAG,0.576
AGUCCUGUGCUACACAUCGUAUGUACCGAAUCGGGGUGGGGUGGGGUUUUUUUGGGGAAAGUAUUAUGUUACGCCGUUCGGAUCUGCACU,1.34
UAACUCUAGAGGAGGAUCUGAUGGAUAUGGCAGUGGACGUGGAUUUGGGGAUGGCUAUAAUGGGUAUGGAGGAGGACCUGGAGGUGGCAA,-0.0227
UGGGAGGUGGAUUUUGUUUAUUUUUUUAGCUCAUUUCCAGCGGUGGGAAUUUUUUUUUAAUAUGUGUCAUGAAUAAAGUUGUUUUUGAAA,3.86
CCUGUGCUACACAUCGUAUGUACCGAAUCGGGGAAAAAAAGGGGAAAGGGGUUUUUGGGGAAAGUAUUAUGUUACGCCGUUCGGAUCUGC,1.4
CAAGUCCUGUGCUACACAUCGUAUGUACCGAAUCGGGGAAAGGAAAGGGAAAGGGAAAGUAUUAUGUUACGCCGUUCGGAUCUGCACUUC,-1.03
UCAAGUCCUGUGCUACACAUCGUAUGUACCGAAUCGGAAAGGGGAAAGGGAAAGGAAAGUAUUAUGUUACGCCGUUCGGAUCUGCACUUC,-1.54
UGGGAGGUGGAUUUUGUUUAUUUUUUUAGCUCAUUUCCAGGGGUGGGAAUUUUUUUUUAAUCUGUGUCAUGAAUAAAGUUGUUUUUGAAA,3.72
UAACUUUAGAGGAGGAUCUGAUGGAUAUGGCAGUGGACGUGGAUUUGGGGAUGGCUAUAAUAGGUAUGGAGGAGGACCUGGAGGUGGCAA,-0.387
CACAGACAACACGCACCCACACAGACACAGAGGGAAGGGGUUGGGAUGGGGGCAGGGUGCACAGCAGGGCGGGGUAGGACCCCAGCCCCU,0.611
AAGUCCUGUGCUACACAUCGUAUGUACCGAAUCAAACCCCCAAACCCAAAUUUAAAAAAGUAUUAUGUUACGCCGUUCGGAUCUGCACUU,-0.845
GUCCUGUGCUACACAUCGUAUGUACCGAAUCGGGAAAAAAAGGGUUUUUUUGGGUGGGAAAGUAUUAUGUUACGCCGUUCGGAUCUGCAC,0.048
CCUGUGCUACACAUCGUAUGUACCGAAUCGGGAAAAAAGGGGAAAAAAGGGGAAAAAAGGAAAGUAUUAUGUUACGCCGUUCGGAUCUGC,-1.69

# Sample 4
# Sequence: PFSENVSAVQKLDFSD
# Form: peptide
# Direction: direction not given
target or system,assay,test system,conditions,enrichment score
Saccharomyces cerevisiae,"cell growth, competitive growth deep sequencing",,"peptide tiling library, with: cyclin F-Cln2 fusion",1.84
human cyclin A2,competitive growth deep sequencing,"Saccharomyces cerevisiae, cyclin A2-Cln2 fusion strain",peptide tiling library,1.85
Saccharomyces cerevisiae,"binding, yeast competitive growth sequencing",,cyclin B2-Cln2 chimera,1.21
Saccharomyces cerevisiae,"binding, yeast competitive growth sequencing",cyclin B3-Cln2 fusion strain,peptide tiling library,1.13

# Some of these lines once more (sample 3):
Sequence,log2 enrichment
CCUCAAGUCCUGUGCUACACAUCGUAUGUACCGAAUCGGGGUGGGUGGUGGGAAAGUAUUAUGUUACGCCGUUCGGAUCUGCACUUCCAG,0.576
AGUCCUGUGCUACACAUCGUAUGUACCGAAUCGGGGUGGGGUGGGGUUUUUUUGGGGAAAGUAUUAUGUUACGCCGUUCGGAUCUGCACU,1.34
UAACUCUAGAGGAGGAUCUGAUGGAUAUGGCAGUGGACGUGGAUUUGGGGAUGGCUAUAAUGGGUAUGGAGGAGGACCUGGAGGUGGCAA,-0.0227
UGGGAGGUGGAUUUUGUUUAUUUUUUUAGCUCAUUUCCAGCGGUGGGAAUUUUUUUUUAAUAUGUGUCAUGAAUAAAGUUGUUUUUGAAA,3.86
CCUGUGCUACACAUCGUAUGUACCGAAUCGGGGAAAAAAAGGGGAAAGGGGUUUUUGGGGAAAGUAUUAUGUUACGCCGUUCGGAUCUGC,1.4
CAAGUCCUGUGCUACACAUCGUAUGUACCGAAUCGGGGAAAGGAAAGGGAAAGGGAAAGUAUUAUGUUACGCCGUUCGGAUCUGCACUUC,-1.03
